Measured values of several laboratories.
Protocols differ between the studies behind these lines. Values joined by “and” are separate records of one study, mostly repeats; a detail may differ. Numbers after ± are the reported error.
MDM4: Protein Mdm4 (MDM4, Homo sapiens, UniProt O15151)
MAPK14: Mitogen-activated protein kinase 14 (MAPK14, Homo sapiens, UniProt Q16539)
FPR1: fMet-Leu-Phe receptor (FPR1, Homo sapiens, UniProt P21462)

Amino acid sequences for entries named in this document (tags omitted). Residues count along the entry.
UniProt O15151, 23-111 limits assumed: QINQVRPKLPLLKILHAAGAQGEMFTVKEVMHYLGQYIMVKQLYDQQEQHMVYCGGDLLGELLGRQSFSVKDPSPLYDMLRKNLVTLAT
UniProt Q16539, whole entry: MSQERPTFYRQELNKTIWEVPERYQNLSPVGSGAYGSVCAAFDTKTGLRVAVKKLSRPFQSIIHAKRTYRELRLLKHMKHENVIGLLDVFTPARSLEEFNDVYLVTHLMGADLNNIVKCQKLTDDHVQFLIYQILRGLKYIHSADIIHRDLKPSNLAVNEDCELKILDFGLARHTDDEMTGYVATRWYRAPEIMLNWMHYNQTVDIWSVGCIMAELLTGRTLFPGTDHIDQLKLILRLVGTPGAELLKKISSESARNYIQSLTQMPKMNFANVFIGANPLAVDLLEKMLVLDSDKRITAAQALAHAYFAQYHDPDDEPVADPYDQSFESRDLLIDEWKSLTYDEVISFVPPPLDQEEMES
UniProt P21462, whole entry: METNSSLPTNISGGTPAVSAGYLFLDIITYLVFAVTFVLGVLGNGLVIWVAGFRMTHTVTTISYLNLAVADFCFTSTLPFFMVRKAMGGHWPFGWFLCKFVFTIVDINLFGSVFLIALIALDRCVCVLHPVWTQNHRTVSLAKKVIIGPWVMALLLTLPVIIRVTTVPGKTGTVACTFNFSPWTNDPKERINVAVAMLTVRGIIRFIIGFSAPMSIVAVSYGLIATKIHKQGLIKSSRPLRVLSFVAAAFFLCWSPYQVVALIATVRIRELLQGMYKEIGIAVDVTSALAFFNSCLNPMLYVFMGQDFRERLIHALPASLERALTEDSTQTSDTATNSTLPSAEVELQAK
UniProt Q06124, 1-535 limits assumed: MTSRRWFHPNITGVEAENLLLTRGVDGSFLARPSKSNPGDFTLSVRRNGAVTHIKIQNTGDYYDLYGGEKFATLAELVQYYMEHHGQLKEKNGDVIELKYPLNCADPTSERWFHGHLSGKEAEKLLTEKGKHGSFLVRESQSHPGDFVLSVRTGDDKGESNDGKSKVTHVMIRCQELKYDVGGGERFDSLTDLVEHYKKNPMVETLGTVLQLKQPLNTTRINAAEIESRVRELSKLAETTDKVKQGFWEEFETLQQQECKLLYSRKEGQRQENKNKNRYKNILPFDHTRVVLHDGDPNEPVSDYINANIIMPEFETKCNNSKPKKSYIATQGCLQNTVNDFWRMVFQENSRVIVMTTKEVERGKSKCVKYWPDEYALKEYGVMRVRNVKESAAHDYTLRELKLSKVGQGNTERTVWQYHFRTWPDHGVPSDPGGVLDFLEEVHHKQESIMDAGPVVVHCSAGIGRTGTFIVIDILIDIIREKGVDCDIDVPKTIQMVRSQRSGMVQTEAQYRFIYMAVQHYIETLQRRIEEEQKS
UniProt Q04609, whole entry: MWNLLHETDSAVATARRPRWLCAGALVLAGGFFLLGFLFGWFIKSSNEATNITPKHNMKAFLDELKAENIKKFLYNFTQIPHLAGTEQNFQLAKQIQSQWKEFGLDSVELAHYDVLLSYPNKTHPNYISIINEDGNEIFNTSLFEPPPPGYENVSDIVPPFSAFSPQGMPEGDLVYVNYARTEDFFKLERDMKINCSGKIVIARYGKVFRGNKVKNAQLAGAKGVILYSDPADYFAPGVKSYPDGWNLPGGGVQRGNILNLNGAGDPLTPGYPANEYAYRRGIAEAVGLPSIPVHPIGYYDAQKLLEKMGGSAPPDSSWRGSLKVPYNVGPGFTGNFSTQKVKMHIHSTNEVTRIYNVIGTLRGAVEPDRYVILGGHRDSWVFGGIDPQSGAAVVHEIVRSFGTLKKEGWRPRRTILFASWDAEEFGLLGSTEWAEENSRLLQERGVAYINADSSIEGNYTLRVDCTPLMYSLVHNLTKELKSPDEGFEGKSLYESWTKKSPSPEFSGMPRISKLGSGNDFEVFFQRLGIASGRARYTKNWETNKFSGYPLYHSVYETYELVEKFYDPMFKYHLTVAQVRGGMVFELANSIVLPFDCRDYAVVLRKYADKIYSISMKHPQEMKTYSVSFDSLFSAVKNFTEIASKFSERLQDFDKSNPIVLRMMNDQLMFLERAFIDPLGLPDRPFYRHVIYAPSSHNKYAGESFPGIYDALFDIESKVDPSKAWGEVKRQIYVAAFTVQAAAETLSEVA
UniProt Q9NZQ7, 19-290 limits assumed: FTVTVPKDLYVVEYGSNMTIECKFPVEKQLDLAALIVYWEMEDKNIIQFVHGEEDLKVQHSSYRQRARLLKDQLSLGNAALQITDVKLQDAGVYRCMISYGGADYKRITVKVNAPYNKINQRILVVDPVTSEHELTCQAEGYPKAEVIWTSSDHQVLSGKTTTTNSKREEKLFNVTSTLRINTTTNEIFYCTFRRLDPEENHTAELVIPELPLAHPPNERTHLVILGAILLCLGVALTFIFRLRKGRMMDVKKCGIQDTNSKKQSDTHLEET
UniProt P51812, whole entry: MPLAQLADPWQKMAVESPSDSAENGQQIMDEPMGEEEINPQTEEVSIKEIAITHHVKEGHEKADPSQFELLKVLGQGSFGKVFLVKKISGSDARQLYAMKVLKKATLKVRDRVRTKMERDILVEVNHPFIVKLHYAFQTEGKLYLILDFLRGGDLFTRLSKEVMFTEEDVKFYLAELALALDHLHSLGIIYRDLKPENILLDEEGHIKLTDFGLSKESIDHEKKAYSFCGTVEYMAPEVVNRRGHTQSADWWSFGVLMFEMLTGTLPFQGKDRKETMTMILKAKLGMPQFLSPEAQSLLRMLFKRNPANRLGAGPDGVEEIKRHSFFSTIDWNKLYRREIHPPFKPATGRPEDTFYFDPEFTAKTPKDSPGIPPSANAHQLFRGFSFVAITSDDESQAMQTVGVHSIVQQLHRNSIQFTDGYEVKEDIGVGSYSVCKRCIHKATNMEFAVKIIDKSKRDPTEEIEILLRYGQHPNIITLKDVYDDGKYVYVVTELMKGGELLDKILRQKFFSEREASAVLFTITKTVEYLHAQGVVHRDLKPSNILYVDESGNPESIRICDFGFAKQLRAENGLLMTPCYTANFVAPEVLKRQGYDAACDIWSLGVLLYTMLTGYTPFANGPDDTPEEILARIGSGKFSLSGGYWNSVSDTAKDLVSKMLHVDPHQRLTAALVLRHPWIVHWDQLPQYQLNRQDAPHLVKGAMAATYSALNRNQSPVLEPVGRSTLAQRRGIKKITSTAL
UniProt P11245, whole entry: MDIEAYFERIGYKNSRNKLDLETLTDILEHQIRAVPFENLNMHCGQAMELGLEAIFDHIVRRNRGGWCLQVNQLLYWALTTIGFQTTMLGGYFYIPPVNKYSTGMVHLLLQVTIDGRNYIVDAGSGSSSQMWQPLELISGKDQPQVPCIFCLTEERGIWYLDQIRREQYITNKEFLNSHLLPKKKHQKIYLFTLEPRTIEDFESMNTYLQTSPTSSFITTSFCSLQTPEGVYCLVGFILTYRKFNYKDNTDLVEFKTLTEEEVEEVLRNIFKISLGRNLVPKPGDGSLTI
UniProt P02701, 25-152 limits assumed: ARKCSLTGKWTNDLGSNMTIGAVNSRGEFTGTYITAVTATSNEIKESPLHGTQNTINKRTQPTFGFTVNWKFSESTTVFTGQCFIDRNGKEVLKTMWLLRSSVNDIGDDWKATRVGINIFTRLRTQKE
UniProt P28072, 35-239 limits assumed: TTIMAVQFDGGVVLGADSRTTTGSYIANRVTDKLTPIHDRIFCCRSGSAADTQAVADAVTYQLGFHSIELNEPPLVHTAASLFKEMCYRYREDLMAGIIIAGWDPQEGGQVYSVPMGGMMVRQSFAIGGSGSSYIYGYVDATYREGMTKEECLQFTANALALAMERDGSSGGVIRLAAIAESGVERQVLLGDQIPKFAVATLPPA
UniProt Q3XYE8, 1-234: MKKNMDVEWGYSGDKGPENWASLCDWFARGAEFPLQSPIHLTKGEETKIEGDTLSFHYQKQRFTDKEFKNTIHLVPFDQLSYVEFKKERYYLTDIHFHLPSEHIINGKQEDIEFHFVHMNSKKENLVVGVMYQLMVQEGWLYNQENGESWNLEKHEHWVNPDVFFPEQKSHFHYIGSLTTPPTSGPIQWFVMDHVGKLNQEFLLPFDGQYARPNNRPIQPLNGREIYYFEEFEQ
UniProt P26358, whole entry: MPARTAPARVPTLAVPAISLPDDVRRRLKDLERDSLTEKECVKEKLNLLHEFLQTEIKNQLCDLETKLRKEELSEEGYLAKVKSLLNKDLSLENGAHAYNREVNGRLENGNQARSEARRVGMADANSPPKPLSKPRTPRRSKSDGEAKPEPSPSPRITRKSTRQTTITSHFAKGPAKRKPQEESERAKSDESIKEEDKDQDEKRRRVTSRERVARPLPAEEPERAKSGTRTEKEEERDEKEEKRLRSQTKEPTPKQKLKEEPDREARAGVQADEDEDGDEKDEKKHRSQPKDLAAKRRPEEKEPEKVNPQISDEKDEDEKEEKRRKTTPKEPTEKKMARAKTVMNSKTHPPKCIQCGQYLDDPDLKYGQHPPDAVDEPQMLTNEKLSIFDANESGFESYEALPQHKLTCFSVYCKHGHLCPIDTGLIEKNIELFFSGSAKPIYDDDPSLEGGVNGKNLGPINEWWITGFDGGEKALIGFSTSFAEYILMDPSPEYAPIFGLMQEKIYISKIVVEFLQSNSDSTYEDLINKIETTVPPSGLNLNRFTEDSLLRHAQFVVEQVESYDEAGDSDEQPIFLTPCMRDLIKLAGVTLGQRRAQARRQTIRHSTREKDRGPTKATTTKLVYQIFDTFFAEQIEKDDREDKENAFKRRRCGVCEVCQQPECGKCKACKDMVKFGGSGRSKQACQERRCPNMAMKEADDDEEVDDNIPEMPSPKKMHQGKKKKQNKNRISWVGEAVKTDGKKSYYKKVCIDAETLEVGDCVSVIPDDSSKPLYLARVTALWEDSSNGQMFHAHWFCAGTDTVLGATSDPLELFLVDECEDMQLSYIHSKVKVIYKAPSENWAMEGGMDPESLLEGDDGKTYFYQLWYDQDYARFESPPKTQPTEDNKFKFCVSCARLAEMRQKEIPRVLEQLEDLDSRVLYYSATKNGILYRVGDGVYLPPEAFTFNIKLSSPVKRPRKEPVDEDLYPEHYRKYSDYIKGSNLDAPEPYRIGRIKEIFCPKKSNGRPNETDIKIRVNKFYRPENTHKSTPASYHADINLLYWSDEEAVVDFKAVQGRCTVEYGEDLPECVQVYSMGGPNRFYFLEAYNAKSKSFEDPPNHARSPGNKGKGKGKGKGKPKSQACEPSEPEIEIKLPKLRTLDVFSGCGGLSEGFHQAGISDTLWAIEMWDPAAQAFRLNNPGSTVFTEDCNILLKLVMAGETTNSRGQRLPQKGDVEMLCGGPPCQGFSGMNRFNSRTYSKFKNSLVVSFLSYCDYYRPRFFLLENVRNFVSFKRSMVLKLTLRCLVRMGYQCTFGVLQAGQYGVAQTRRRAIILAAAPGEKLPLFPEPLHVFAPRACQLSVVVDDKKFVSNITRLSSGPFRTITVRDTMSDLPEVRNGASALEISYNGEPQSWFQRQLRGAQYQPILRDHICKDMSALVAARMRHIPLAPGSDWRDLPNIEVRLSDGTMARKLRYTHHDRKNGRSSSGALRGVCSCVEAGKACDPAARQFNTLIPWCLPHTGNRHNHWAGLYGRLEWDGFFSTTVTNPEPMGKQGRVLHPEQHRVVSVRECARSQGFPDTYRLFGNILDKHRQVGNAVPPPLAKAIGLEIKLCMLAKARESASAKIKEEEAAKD
UniProt P50406, whole entry: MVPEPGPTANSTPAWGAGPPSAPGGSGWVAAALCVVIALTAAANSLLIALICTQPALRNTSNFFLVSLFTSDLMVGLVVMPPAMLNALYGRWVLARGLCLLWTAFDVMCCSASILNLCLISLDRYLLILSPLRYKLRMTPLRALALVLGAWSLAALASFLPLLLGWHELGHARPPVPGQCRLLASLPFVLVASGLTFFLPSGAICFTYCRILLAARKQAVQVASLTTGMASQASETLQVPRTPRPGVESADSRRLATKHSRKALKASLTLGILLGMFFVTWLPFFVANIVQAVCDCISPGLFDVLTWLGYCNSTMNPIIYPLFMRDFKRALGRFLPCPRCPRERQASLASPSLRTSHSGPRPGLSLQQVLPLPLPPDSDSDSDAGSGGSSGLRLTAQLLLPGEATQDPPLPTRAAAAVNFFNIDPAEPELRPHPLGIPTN

| SMILES | target or system | test | test system | setting | endpoint | value |
| --- | --- | --- | --- | --- | --- | --- |
| CC[C@H](C)[C@H](NC(=O)[C@H](CO)NC(=O)[C@H](C)NC(=O)[C@H](Cc1ccc(OP(=O)(O)O)cc1)NC(=O)[C@@H](NC(=O)[C@H](CO)NC(=O)[C@H](CC(C)C)NC(=O)CCOCCOCCOCCOCCOCCOCCOCCOCCNC(=O)[C@@H](NC(=O)[C@H](CC(C)C)NC(=O)[C@H](CC(=O)O)NC(=O)[C@H](CC(C)C)NC(=O)[C@H](CC(=O)O)NC(=O)[C@@H](NC(=O)[C@H](Cc1ccc(OP(=O)(O)O)cc1)NC(=O)[C@H](CC(N)=O)NC(=O)[C@@H](N)CC(C)C)[C@@H](C)CC)C(C)C)[C@@H](C)O)C(=O)N[C@@H](CC(N)=O)C(=O)N[C@@H](Cc1ccccc1)C(=O)N[C@@H](CCC(N)=O)C(=O)N[C@@H](CCCCN)C(N)=O | Tyrosine-protein phosphatase non-receptor type 11 (PTPN11, Homo sapiens, UniProt Q06124) | enzyme activity, activator | – | with: DiFMUP 10 µM | EC50 | 448 ± 50 nM |
| C[C@H](NC(=O)[C@@H](N)Cc1ccc(O)cc1)C(=O)NCC(=O)N[C@@H](CO)C(=O)N[C@H](C(=O)N[C@@H](CC(=O)O)C(=O)N[C@@H](CCC(=O)O)C(=O)N[C@@H](CC(N)=O)C(=O)N[C@H](C(=O)N[C@@H](CC(=O)O)C(=O)N[C@@H](CO)C(=O)N[C@@H](CCC(=O)O)C(=O)O)[C@@H](C)O)[C@@H](C)O | Bifunctional polynucleotide phosphatase/kinase, FHA domain (Homo sapiens, UniProt Q96T60) | binding, isothermal titration calorimetry | – | 400 µM, pH 7.5, 10 °C | Kd | no binding |
| COc1ccc(C2=N[C@@H](c3cccc(Cl)c3)[C@@H](c3ccc(Cl)cc3)N2C(=O)N2CCNC(=O)C2)c(OC(C)C)c1 (relative stereo) | MDM4 | isothermal titration calorimetry | – | 298 K | Kd | 4700 ± 1800 nM |
| [2H]C(C)(CO[C@H]1CC[C@H](CN2CCN(c3ccc4c(c3F)n(C)c(=O)n4C3CCC(=O)NC3=O)CC2)CC1)NS(=O)(=O)c1ccc(Nc2ncc(C(F)(F)F)c([C@H]3CC[C@@](C)(O)CC3)n2)c(C)c1 (stereo partly drawn) | Cyclin-dependent kinase 2 (CDK2, Homo sapiens, UniProt P24941) | degrader, AlphaLISA | MKN-1 CCNE1-amplified | 14 h | DC50 | 39 nM |
| C#CCC(NC(=O)C1CC(C2CCCCC2)CN1C(=O)CSC1CCN(C(=O)CCC(NC(=O)NC(CCC(=O)O)C(=O)O)C(=O)O)CC1)C(=O)NCCOCCOCCNC(=S)Nc1ccc2c(c1)C(=O)OC21c2ccc(O)cc2Oc2cc(O)ccc21 (stereo not drawn) | Glutamate carboxypeptidase 2 (FOLH1, Homo sapiens, UniProt Q04609) | fluorescence polarization | – | FITC-labelled compound | Kd | 0.9 nM |
| COc1cccc([C@@H]2N=C(c3ccc(OC)cc3OC(C)C)N(C(=O)N3CCNC(=O)C3)[C@@H]2c2ccc(Cl)cc2)c1 (relative stereo) | MDM4 | NMR HSQC titration | – | pH 6.5, 298 K, global fit | Kd | 2400 ± 700 nM |
| COc1nc(OCc2cccc(-c3ccccc3)c2C)ccc1CNCCNC(=O)CCCc1cn(CCOCCC(=O)N[C@@H](CC(=O)O)C(=O)N[C@@H](Cc2cnc[nH]2)C(=O)N[C@@H](CC(C)C)C(=O)N[C@@H](C)C(=O)N[C@@H](CO)C(=O)N[C@@H](CC(C)C)C(=O)N[C@@H](Cc2c[nH]c3ccccc23)C(=O)N[C@@H](Cc2c[nH]c3ccccc23)C(=O)NCC(=O)N[C@H](C(=O)N[C@@H](CCC(=O)O)C(=O)N[C@@H](CC(C)C)C(=O)O)[C@@H](C)O)nn1 | Programmed cell death 1 ligand 1 (CD274, Homo sapiens, UniProt Q9NZQ7) | degrader, Western blot | HepG2 | 24 h | DC50 | 2030 ± 380 nM |
| CC(C)C[C@H](NC(=O)[C@H](C)NC(=O)[C@H](CCCNC(=N)N)NC(=O)[C@H](CCCNC(=N)N)NC(=O)[C@H](CCCNC(=N)N)NC(=O)[C@H](C)NC(=O)[C@H](CC(C)C)NC(=O)[C@H](CCCNC(=N)N)NC(=O)[C@H](CO)NC(=O)[C@H](CCCCN)NC(=O)[C@H](CO)NC(=O)Cn1cc(COC(=O)[C@]2(C)C=C(C(=O)OC(C)(C)C)C(=O)CC2)nn1)C(=O)O | MAPK14 | enzyme activity, inhibitor, D-SENSOR | – | 0.823 µM | normalized kinase activity | 0.319 |
| COc1ccc2[nH]c(C(=O)Nc3ccc(C(CC(C)C)=NNC(=N)N)cc3)cc2c1 | Ribosomal protein S6 kinase alpha-3 (RPS6KA3, Homo sapiens, UniProt P51812) | kinase activity, inhibitor, IMAP fluorescence polarization | – | – | IC50 | > 100000 nM |
| CCOC(=O)Oc1ccc2c(c1OC(=O)OCC)C(=O)c1ccccc1C2=O | Arylamine N-acetyltransferase 2 (NAT2, Homo sapiens, UniProt P11245) | enzyme activity, inhibitor | recombinant in yeast lysate | with: 10 µM sulfamethazine and 100 µM acetyl-CoA | IC50 | 82200 ± 12900 nM |
| CCC(=O)O[C@H](CCOCc1ccccc1)[C@@H](C)[C@H](O)[C@@H](C)CCC(=O)[C@H](C)[C@H](OC(C)=O)[C@H](C)/C=C/N(C)C=O | Actin, alpha skeletal muscle, monomeric (ACTA1, Oryctolagus cuniculus, UniProt P68135) | Prodan fluorescence titration | G-actin | pH 8.0, with: 0.2 mM ATP | Kd | 285 ± 32.6 nM |
| CSCC[C@@H]1NC(=O)[C@H](Cc2ccc(O)cc2)NC(=O)[C@H](Cc2ccccc2)NC(=O)[C@H](CCC(N)=O)NC(=O)[C@@H]2CCCN2C(=O)[C@H](Cc2c[nH]cn2)NC(=O)[C@@H](NC(=O)[C@H](C)N)CSSC[C@@H](C(=O)N[C@@H](CO)C(=O)NCC(=O)O)NC(=O)[C@H](CCCNC(=N)N)NC1=O | Avidin, deglycosylated (AVD, Gallus gallus, UniProt P02701) | binding, yeast display flow cytometry | – | 30 to 300 nM, 1 h, 4 °C, with: neutravidin-DyLight 650 | apparent Kd | no binding |
| CC(C)CC(NC(=O)C(Cc1ccccc1)NC(=O)c1cnc(C(=O)NC(Cc2ccccc2)C(=O)NC(CC(C)C)B(O)O)cn1)B(O)O (stereo not drawn) | Proteasome subunit beta type-6 (PSMB6, Homo sapiens, UniProt P28072) | caspase-like activity, inhibitor, Proteasome-Glo | MM.1R | 24 h | IC50 | 9 ± 0.42 nM |
| NS(=O)(=O)c1nnc(NC(=O)C2C3CC2C3)s1 (stereo not drawn) | Enterococcus faecium gamma-carbonic anhydrase | CO2 hydration, inhibitor, stopped-flow kinetics | – | – | Ki | 280 nM |
| COc1ccc(-c2cn3cccnc3n2)cc1NC(=O)C(C)C | FPR1 | binding | – | single representative run | Ki | 3500 nM |
| NS(=O)(=O)c1nnc(NC(=O)C2C3CC4CC(C3)CC2C4)s1 (stereo not drawn) | alpha-carbonic anhydrase (Enterococcus faecium, UniProt Q3XYE8) | CO2 hydration, inhibitor, stopped-flow kinetics | – | – | Ki | 92.4 nM |
| N#Cc1c(-c2ccc(Cl)cc2Cl)n(-c2nc(-c3ccc(Cl)cc3)c3c(NC(=O)c4ccccc4)nnc-3[nH]2)[nH]c1=O | RXF 393 | SRB | – | 10 µM | cell growth | -35.5% |
| Cc1ccc(-c2n[nH]cc2-c2ccnc3ccccc23)nc1 | MAPK14 | kinase activity, inhibitor, ADP-Glo | – | with: ATP 80 µM | IC50 | 17500 nM |
| CCc1c(C#N)c(SC(C(N)=O)c2ccc(F)cc2)nc(N2CCC(N(C)C)CC2)c1C#N (stereo not drawn) | DNA (cytosine-5)-methyltransferase 1 (DNMT1, Homo sapiens, UniProt P26358) | degrader, Western blot | HCT-116 | 24 h | DC50 | 35 nM and < 50 nM |
| CC/C=C\C/C=C\CCC/C=C/C=C/C=C\CCCC(=O)O | DNA polymerase beta (Rattus norvegicus, UniProt P06766) | enzyme activity, inhibitor | – | with: 0.05 units polymerase | IC50 | 31600 ± 1900 nM |
| CCc1cc2c(=O)c(-c3nc4ccccc4n3C)c(C)oc2cc1OC(C)=O | FPR1 | binding | – | single representative run | Ki | 37 nM |
| c1cnc2c(N3CCN(CCCN4CCN(c5cccc6sccc56)CC4)CC3)cccc2c1 | 5-hydroxytryptamine receptor 6 (HTR6, Homo sapiens, UniProt P50406) | binding | – | – | Ki | 33.1 ± 5.8 nM |
| C=C(C)C(=O)Nc1ccc(-c2c(-c3ccc(Oc4nccc(C)n4)c(F)c3)c3c(N)ncnc3n2C)cc1 | EFM-19 | cell growth, CellTiter-Glo | – | 120 h | IC50 | 1580 nM |
| CCOC(=O)c1c(-c2ccc(Cl)cc2Cl)n(-c2nc(-c3ccc(Cl)cc3)c3c(NC(=O)c4ccccc4)nnc-3[nH]2)[nH]c1=O | SF-295 | SRB | – | 10 µM | cell growth | 16.2% |

Excerpt of the above:
| SMILES | target or system | test | test system | setting | endpoint | value |
| --- | --- | --- | --- | --- | --- | --- |
| CCc1c(C#N)c(SC(C(N)=O)c2ccc(F)cc2)nc(N2CCC(N(C)C)CC2)c1C#N (stereo not drawn) | DNA (cytosine-5)-methyltransferase 1 (DNMT1, Homo sapiens, UniProt P26358) | degrader, Western blot | HCT-116 | 24 h | DC50 | 35 nM and < 50 nM |
